Assay results of several laboratories.
Lines come from different studies, so protocols differ.

Under “Cmax geometric mean”, `C[C@@H](Nc1cc(F)cc(F)c1)c1cc(C(=O)N(C)C)cc2c(=O)cc(N3CCOCC3)oc12` is recorded as 971 ng/mL (human, plasma; oral, 120 mg, day 1 single dose).
For `CC(C)[C@H](N)C(=O)NCCCS(=O)(=O)O`, the Cmax was 8830 ng/mL (human, plasma; oral, 340 mg twice daily days 8-13, once daily day 14, day 14, fed, capsule).
For `CCOc1c([C@H](C)n2nc(C)c3c(N)ncnc32)cc(Cl)c(F)c1[C@@H]1CNC(=O)C1`, the Cmax was 2150 nM (human patients, Hodgkin lymphoma, plasma; oral, 30 mg, day 15, geometric mean, monotherapy).
`CO[C@H]1C[C@@H]2CC[C@@H](C)[C@@](O)(O2)C(=O)C(=O)N2CCCC[C@H]2C(=O)O[C@H]([C@H](C)C[C@@H]2CC[C@@H](OC(=O)NCCOCCOCCOCCOCCOCCOCCOCCOCCC(=O)N3CCc4cc(Cn5nc(-c6ccc7oc(N)nc7c6)c6c(N)ncnc65)ccc4C3)[C@H](OC)C2)C[C@@H](O)[C@H](C)/C=C(\C)[C@@H](O)[C@@H](OC)C(=O)[C@H](C)C[C@H](C)/C=C/C=C/C=C/1C` gave a Cmax of 940 ng/mL (human patients, plasma; intravenous, 16 mg, cycle 1 day 15, weekly dosing).
The Cmax of `CN1C(=O)[C@@H](NC(=O)c2nnc(Cc3ccccc3)[nH]2)COc2cccnc21` is reported as 5240 ng/mL (human, plasma; oral, 600 mg once daily, day 1, geometric mean).
`COc1ncc(-c2nc3c(n2C(C)C)[C@H](c2ccc(Cl)cc2)N(c2cc(Cl)cn(C)c2=O)C3=O)c(OC)n1` gave a Cmax of 2050 ng/mL (LC-MS/MS, noncompartmental; human, plasma; oral, 200 mg, C1D1, high-dose, geometric mean).
For `CNC(=O)c1ccc(-c2cnc3ncc(Cc4ccc5ncccc5c4)n3n2)cc1F`, the Cmax was 1800 ng/mL (human mild hepatic impairment NCI; oral, 200 mg single dose, geometric mean).
`O=C(O)CCC(=O)O.[2H]C([2H])([2H])Oc1cc(C)c2[nH]ccc2c1CN1CC[C@@H](C2CC2)C[C@H]1c1ccc(C(=O)O)cc1` gave a Cmax of 4900 ng/mL (human, plasma; 100 mg twice daily, day 10, multiple ascending dose, geometric mean).
`C=CCn1c(=O)c2cnc(Nc3ccc(N4CCN(C)CC4)cc3)nc2n1-c1cccc(C(C)(C)O)n1` has a Cmax of 590 nM (human; oral, 125 mg twice daily, monotherapy lead-in, -5 days; geometric mean).
For `C=CC(=O)N(C)CCOc1c(N)ncnc1-c1cc(F)cc(NC(=O)c2ccc(C3CC3)cc2F)c1C`, “Cmax per dose” read 7.95 ng/mL/mg (human; oral, 20 mg, day 7, geometric mean, added: ritonavir).
`C[C@@H]1CCO[C@H]2Cn3cc(C(=O)NCc4ccc(F)cc4F)c(=O)c(O)c3C(=O)N12` gave a Cmax of 4440 ng/mL (human paediatric patients, weight 6 to under sample A kg, plasma; oral, 12.8 mg granules, steady state, geometric mean, population PK post-hoc, N 6).
With `CCN1CCN(Cc2ccc(Nc3ncc(F)c(-c4cc(F)c5nc6n(c5c4)[C@H](C)CCC6)n3)nc2)CC1` the Cmax was 241 ng/mL (human, Phase Ib patients, plasma; 400 mg, single dose, mean, added: fulvestrant).
`O=C(COc1ccc(Cl)cc1)NC12CC(c3nnc([C@H]4C[C@@H](OC(F)(F)F)C4)o3)(C1)C2` has a Cmax of 2040 nM (healthy human both sexes, plasma; oral, 145 mg once daily, day 1, mean).

Excerpt of the above:
For `CC(C)[C@H](N)C(=O)NCCCS(=O)(=O)O`, the Cmax was 8830 ng/mL (human, plasma; oral, 340 mg twice daily days 8-13, once daily day 14, day 14, fed, capsule).
